Assay results collected from several papers.
Lines come from different studies, so protocols differ. “And” joins repeats or separate records; there may be more than shown. ± gives the spread as reported.
Abhd6: Monoacylglycerol lipase ABHD6 (Abhd6, Mus musculus, UniProt Q8R2Y0)
Sequence of UniProt Q8R2Y0 (whole entry, looked up): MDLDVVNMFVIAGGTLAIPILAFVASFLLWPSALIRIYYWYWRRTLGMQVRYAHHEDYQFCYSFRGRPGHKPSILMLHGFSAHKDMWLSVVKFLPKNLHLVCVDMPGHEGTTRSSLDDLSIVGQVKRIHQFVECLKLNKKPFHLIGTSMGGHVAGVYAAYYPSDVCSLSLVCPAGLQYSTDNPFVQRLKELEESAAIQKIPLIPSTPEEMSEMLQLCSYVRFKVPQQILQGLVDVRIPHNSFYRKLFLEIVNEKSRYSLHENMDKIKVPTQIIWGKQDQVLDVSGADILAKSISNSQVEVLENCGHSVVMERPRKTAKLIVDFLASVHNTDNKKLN
Sequence of UniProt P0A988 (whole entry, unmodified, looked up): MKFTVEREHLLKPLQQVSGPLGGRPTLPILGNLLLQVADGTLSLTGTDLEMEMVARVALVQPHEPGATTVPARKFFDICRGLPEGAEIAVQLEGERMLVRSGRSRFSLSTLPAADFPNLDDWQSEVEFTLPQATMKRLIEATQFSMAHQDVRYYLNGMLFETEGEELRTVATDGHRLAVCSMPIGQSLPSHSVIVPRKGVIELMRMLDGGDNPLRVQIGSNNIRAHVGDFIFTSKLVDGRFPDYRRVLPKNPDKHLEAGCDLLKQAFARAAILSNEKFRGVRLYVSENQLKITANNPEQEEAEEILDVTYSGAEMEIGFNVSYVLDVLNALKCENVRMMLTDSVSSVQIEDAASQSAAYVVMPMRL
Sequence of UniProt Q6DWJ6 (whole entry, looked up): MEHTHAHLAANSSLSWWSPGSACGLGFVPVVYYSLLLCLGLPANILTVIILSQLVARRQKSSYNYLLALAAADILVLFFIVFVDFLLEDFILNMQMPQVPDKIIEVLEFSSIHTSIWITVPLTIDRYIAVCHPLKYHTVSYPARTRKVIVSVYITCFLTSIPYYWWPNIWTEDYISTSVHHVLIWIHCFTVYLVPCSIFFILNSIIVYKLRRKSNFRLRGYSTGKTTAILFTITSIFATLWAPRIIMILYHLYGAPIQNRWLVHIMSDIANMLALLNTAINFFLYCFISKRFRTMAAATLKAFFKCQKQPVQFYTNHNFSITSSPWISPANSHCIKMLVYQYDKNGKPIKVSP
Sequence of UniProt Q9Y2J8 (whole entry, looked up): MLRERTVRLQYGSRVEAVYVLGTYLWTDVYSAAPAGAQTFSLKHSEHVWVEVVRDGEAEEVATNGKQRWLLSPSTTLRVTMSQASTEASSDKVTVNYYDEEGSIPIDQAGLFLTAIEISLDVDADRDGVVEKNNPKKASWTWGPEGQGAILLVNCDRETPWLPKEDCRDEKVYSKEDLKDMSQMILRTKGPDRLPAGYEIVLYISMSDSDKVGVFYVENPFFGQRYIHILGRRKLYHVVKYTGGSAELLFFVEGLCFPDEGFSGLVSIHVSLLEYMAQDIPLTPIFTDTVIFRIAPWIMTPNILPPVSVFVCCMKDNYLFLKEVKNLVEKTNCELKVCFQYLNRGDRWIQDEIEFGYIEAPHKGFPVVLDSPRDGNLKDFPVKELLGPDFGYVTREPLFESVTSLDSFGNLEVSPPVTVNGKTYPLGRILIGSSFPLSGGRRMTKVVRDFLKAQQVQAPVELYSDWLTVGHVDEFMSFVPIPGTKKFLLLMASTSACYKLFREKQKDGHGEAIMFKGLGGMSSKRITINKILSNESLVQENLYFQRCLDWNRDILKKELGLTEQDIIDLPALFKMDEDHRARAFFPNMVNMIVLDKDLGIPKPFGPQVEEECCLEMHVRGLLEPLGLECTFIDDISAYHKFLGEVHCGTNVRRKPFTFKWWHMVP
Sequence of UniProt Q704Y3 (whole entry, unmodified, looked up): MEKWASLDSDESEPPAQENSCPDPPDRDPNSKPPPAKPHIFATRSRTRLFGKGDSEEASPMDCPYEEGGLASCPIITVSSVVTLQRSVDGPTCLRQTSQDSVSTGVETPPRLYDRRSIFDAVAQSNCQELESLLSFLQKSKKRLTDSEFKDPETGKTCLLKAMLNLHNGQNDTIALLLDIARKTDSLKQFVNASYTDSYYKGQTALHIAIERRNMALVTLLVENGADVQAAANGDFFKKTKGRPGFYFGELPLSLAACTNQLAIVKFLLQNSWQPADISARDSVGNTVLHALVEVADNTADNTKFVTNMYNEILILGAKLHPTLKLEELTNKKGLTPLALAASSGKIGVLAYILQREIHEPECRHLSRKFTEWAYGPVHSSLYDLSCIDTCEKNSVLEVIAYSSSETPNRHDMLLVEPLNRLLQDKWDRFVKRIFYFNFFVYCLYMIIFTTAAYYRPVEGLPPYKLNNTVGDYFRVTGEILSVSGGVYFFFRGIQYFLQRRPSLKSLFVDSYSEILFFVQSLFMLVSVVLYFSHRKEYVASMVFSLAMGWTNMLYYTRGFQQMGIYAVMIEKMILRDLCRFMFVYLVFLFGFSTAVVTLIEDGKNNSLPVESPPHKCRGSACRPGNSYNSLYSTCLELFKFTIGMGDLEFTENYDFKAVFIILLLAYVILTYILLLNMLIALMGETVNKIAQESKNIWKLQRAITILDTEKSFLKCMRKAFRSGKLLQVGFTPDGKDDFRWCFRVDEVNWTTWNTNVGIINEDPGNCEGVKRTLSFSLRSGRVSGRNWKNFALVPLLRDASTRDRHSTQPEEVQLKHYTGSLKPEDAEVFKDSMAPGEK
Sequence of UniProt P36107 (whole entry, looked up): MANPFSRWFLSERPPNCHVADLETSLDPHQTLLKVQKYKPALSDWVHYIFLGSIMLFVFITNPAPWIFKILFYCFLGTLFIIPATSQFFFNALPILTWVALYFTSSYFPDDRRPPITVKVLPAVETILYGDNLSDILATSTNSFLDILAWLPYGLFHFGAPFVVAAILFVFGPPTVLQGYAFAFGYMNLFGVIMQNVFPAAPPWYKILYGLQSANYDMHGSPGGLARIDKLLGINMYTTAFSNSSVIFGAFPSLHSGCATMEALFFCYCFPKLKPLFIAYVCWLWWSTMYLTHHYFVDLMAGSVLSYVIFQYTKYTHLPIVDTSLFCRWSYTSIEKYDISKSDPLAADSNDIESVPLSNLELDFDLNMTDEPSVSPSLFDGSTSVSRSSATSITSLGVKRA
Sequence of UniProt P42681 (whole entry, looked up): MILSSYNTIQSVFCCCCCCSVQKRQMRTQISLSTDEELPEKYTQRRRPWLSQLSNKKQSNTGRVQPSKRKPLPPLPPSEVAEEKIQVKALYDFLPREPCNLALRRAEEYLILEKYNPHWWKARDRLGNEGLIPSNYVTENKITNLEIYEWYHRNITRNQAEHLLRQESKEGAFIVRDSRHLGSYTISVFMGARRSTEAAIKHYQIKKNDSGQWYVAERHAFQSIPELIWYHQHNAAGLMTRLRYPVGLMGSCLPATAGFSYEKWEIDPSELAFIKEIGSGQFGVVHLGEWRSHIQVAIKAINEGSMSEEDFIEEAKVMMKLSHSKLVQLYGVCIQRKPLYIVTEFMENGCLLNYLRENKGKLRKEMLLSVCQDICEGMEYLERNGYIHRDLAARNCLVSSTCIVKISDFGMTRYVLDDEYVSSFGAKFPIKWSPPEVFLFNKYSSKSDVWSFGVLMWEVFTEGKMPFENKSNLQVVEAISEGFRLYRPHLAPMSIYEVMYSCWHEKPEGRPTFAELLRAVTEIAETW
Sequence of UniProt P0AC13 (whole entry, looked up): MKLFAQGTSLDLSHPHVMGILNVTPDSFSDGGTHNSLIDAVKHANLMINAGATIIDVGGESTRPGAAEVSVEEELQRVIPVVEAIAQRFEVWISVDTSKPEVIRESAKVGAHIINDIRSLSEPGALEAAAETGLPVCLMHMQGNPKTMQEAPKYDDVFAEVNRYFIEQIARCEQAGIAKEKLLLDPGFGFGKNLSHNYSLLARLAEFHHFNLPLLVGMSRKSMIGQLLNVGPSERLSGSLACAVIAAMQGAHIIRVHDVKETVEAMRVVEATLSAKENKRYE
Sequence of UniProt P07510 (whole entry, looked up): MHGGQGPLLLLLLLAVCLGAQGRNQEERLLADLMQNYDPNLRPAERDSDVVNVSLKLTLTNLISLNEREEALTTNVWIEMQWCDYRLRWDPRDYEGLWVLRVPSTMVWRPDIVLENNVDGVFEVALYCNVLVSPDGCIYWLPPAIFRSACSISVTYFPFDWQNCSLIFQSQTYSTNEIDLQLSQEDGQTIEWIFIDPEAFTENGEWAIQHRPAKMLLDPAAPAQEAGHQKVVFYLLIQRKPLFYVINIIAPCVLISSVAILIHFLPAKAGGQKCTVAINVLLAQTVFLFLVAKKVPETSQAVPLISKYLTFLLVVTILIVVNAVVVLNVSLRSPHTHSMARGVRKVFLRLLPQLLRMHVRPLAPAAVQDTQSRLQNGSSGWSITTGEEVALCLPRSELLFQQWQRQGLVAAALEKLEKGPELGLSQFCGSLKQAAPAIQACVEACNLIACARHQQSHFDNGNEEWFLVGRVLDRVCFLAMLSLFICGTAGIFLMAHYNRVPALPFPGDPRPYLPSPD

O=C1NC2(CC2)COc2ncc(F)cc2[C@H]2COCCN2c2ccn3ncc1c3n2
pancreatic amylase activity (Sprague-Dawley rat, female, serum; oral, 2.5 mg/kg/day, 4 weeks daily, end of treatment): 1530 ± 243 U/L

C=CC(=O)NC[C@H](NC(=O)[C@H](CC1CCCCC1)NC(=O)[C@H](CCC(N)=O)NC(C)=O)C(=O)N[C@@H](CC(C)C)C(=O)N[C@@H](Cc1ccccc1)C(=O)O
ΔG (Beta sliding clamp (Escherichia coli, UniProt P0A988, H175G); isothermal titration calorimetry; 25 °C): -8.3 kcal/mol

CCN(CC)C(=O)c1ccc(C(c2cccc(O)c2)N2CC(C)N(Cc3ccccc3)CC2C)cc1 (centres unmarked)
Ki (OPRD1 (Homo sapiens, UniProt P41143, D95G)): 0.92 ± 0.27 nM

COc1ccccc1-c1nc2sc3c(c2c(=O)o1)CCC3
Hill slope (Genome polyprotein, 3C protease (rhinovirus B14, UniProt P03303); protease activity, SAMDI-MS): 1.08

Cn1nc(CCN)c(=O)c2c(=O)[nH]c(N)nc21
melting temperature (folP (Bacteria, UniProt P0AC13); CETSA HiBiT; Escherichia coli, whole cells): 55.7 °C

COCC1CCCCN1C(=O)n1cc(C(O)(c2ccccc2)c2ccccc2)nn1 (centres unmarked)
SILAC activity ratio (Abhd6; probe labelling, inhibitor, competitive ABPP-SILAC; mouse T cells; concentration not given, 4 h, single peptide; relative to: treated over DMSO cells, lower = stronger inhibition): 1.1 and 0.8 and 0.74 and 1.16

COc1ccccc1-c1n[nH]c2nc(NC3CCN(C(=O)Cc4ccc(F)cc4F)CC3)ncc12
relative abundance (bead binding, competition bead pull-down, item: LMJF.21.0280; Leishmania donovani axenic amastigote extract; 10 µM; relative to: vehicle): 0.84

Cc1nc2cccc(OCC(C)(C)C(=O)NC(C)C)c2c(N)c1C(=O)[O-].[Na+]
revertant colonies (Escherichia coli; reverse mutation, preincubation; WP2 uvrA; 0.80 mg/plate, with rat liver S9): 39 ± 8 colonies/plate

CC(C)(C)C(=O)OCOP(=O)(OCOC(=O)C(C)(C)C)C1CCCN(O)C1=O (centres unmarked)
GI50 (NCI-H522): 308 nM

CN(C)CCCSC(=S)N1CCN(C(=O)/C=C/c2coc3ccccc3c2=O)CC1
MST response (Nucleoprotein (N, Tomato spotted wilt virus, UniProt P25999, R94A); binding, microscale thermophoresis; 7.812 µM; dose series): 841 a.u.

CCCCC/C=C\C/C=C\C/C=C\C/C=C\CCCC(=O)NCCc1ccc(O)c(O)c1
maximal open probability (Trpv1 (Mus musculus, UniProt Q704Y3, E571S); ion current, agonist, whole-cell patch clamp; E571S; relative to: 3 mM 2-APB): 0.6 ± 0.02

CN(C)[C@H]1C[C@@]23CC[C@@]4(O2)C(=CC[C@]2(C)[C@@H](c5ccc6ccncc6c5)CC[C@H]24)C=C3[C@@H](O)[C@@H]1O
inhibition (PIK3CD (Homo sapiens, UniProt O00329); ATP probe labelling, inhibitor, KiNativ profiling; 0.1 µM): -12.5%

CCCCCCCCCCN(O)C(=O)CCCCC[C@@H]1NC(=O)[C@H]2CCCN2C(=O)[C@H](Cc2ccccc2)NC(=O)[C@H](Cc2ccccc2)NC1=O
selectivity ratio (HDAC11 (Homo sapiens, UniProt Q96DB2); inhibitor; relative to: Ki HDAC1 over Ki HDAC11): 0.6

CC(C)CC(O)(CC(C)C)c1cn(C(=O)N2CCCC2)nn1
ratio of ratios (Abhd6; enzyme activity, inhibitor, item: Abhd6; mouse, brain; i.p., 0.8 mg/kg, 4 h, protein level; relative to: vehicle): 2.89

Cc1ccc(N2CC3CCC(C2)N3C)cc1C(=O)N[C@H](C)c1cc(-c2cnn(C)c2)nc2ccccc12
remaining activity (Cathepsin B (CTSB, Homo sapiens, UniProt P07858); enzyme activity; 30 µM): 111%

F[B-](F)(F)c1cccc(/N=N/c2ccccc2)c1.[K+]
switching factor (Chymotrypsinogen A (Bos taurus, UniProt P00766); enzyme activity, inhibitor; together with: Suc-AAPF-AMC; relative to: Ki cis over Ki trans): 5.5 ± 0.2

CC#CC(=O)NC[C@H](NC(=O)[C@H](CC1CCCCC1)NC(=O)[C@H](CCC(N)=O)NC(C)=O)C(=O)N[C@@H](CC(C)C)C(=O)N[C@@H](Cc1ccccc1)C(=O)O
ΔH (Beta sliding clamp (Escherichia coli, UniProt P0A988); binding, isothermal titration calorimetry; 25 °C): -11.8 kcal/mol

C#CCCCCOc1ccc2c(c1)CCCN2C(=O)CCl
reactivity ratio (AIFM1 (Homo sapiens, UniProt O95831); mass spectrometry profiling; H460 cell lysate; 100 µM over 10 µM, UniProt O95831; relative to: high over low concentration): 1.43

CCc1nnc(-c2c(OC)cc(-c3cnc4cc(-c5cnn(C)c5)ccn34)cc2OC)o1
remaining binding (CHRM3 (Homo sapiens, UniProt P20309); antagonist radioligand, radioligand binding; 10 µM, SafetyScreen44 M3 replicate 2; lower = stronger displacement): 97.8%

Cc1cc(C(=O)Nc2nc3cccc(C)c3n2[C@H]2CCCCN(C(=O)/C=C/CN(C)C)C2)ccn1
cells in G1 phase (Trypanosoma brucei; propidium iodide flow cytometry; bloodstream form; concentration not given, 48 h): 30.5%

CC[C@H](C)[C@H](NC(=O)[C@H](CO)NC(=O)[C@H](Cc1ccc(O)cc1)NC(=O)[C@H](Cc1ccc(O)cc1)NC(=O)[C@H](CC(N)=O)NC(=O)CNC(=O)[C@H](CO)NC(=O)[C@H](Cc1ccc(O)cc1)NC(=O)[C@H](CO)NC(=O)[C@H](CO)NC(=O)[C@H](CC(N)=O)NC(=O)COCCOCCNC(=O)CN1CCN(CC(=O)O)CCN(CC(=O)O)CCN(CC(=O)O)CC1)C(=O)N[C@@H](CC(C)C)C(N)=O [copper-64 labelled]
maximum pancreas uptake (dynamic PET; tamoxifen-induced PDAC mouse model, pancreas; 6.5 min, CLDN4-expressing tumours): 17.2 %IA/cc

N[C@H](C(=O)N1CCCC1)C1CCN(c2nccc3c(-c4ncc(Cl)cc4Cl)cccc23)CC1
kcat (PADI2 (Homo sapiens, UniProt Q9Y2J8); enzyme activity; 1.536 µM, together with: Ca2+ 0.25 mM): 0.0534 s⁻¹ and 0.0569 s⁻¹

CCC[C@H](C(=O)c1ccccc1)N1CCCC1
Ki (SLC6A3 (Homo sapiens, UniProt Q01959); dopamine uptake, inhibitor; HEK293 transiently transfected; DAT V152I mutant, together with: [3H]dopamine): 927 nM

CC[C@@H](C)[C@@H]1NC(=O)[C@@H]2CCCN2C(=O)[C@H](Cc2ccccc2)N(C)C(=O)[C@H](Cc2ccccc2)NC(=O)[C@H](C(C)C)N(C)C(=O)[C@@H]([C@H](C)CC)OC(=O)[C@H](C(C)(C)O)N(C)C(=O)[C@H](CC(C)C)NC(=O)[C@H](C(C)C)N(C)C1=O
normalized IPC synthase activity (AUR1/KEI1 (Saccharomyces cerevisiae, UniProt P36107+Q06346); enzyme activity, inhibitor; concentration not given; relative to: DMSO): 0

Cc1sc2c(c1C)C(c1ccc(Cl)cc1)=NC(CC(=O)OC(C)(C)C)c1nnc(C)n1-2 (centres unmarked)
remaining binding (VIPR1 (Homo sapiens, UniProt P32241); ligand displacement, radioligand; 1 µM): 109%

CN1CC(=O)N[C@H](CC(=O)O)C(=O)N2CCCC[C@@H]2C(=O)N[C@@H](Cc2ccc3ccccc3c2)C(=O)N[C@@H](CCCNC(=N)N)C(=O)N[C@@H](CCCNC(=N)N)C(=O)N[C@H](Cc2ccccc2)C(=O)N[C@H]2CNC(=O)c3cc(cc(c3)C(=O)N3CCC[C@H]3C1=O)C(=O)NC[C@@H](C(=O)N[C@@H](CCCCNC(=S)Nc1ccc3c(c1)C(=O)OC31c3ccc(O)cc3Oc3cc(O)ccc31)C(N)=O)NC(=O)[C@H](CCCNC(=N)N)NC(=O)[C@H](CCCNC(=N)N)NC(=O)[C@H](CCCNC(=N)N)NC(=O)[C@H](CCCNC(=N)N)NC(=O)[C@H](Cc1ccc3ccccc3c1)NC(=O)[C@H](Cc1ccccc1)NC2=O
binding affinity improvement (PIN1 (Homo sapiens, UniProt Q13526); fluorescence anisotropy; concentration not given; relative to: parent peptide): ~2 fold

N=C(N)NCCC[C@@H]1NC(=O)[C@H](CCCCNC(=O)CCC(NC(=S)Nc2ccc(CC3CN(CC(=O)O)CCN(CC(=O)O)CCN(CC(=O)O)CCN3CC(=O)O)cc2)C(=O)NCCCC[C@@H]2NC(=O)[C@@H](Cc3ccc(O)cc3)NC(=O)[C@H](CC(=O)O)NC(=O)CNC(=O)[C@H](CCCNC(=N)N)NC2=O)NC(=O)[C@@H](Cc2ccc(O)cc2)NC(=O)[C@H](CC(=O)O)NC(=O)CNC1=O (some centres unmarked) [scandium-44 labelled]
tissue uptake (ex vivo γ-counting; female athymic nude mice, U-87 MG xenograft, pancreas; intravenous, 4 h, together with: cRGD 50 mg/kg blocking): 0.019 ± 0.005 %ID/g

COc1ccccc1-c1n[nH]c2nc(N[C@H]3CC[C@H](NS(=O)(=O)CC(C)C)CC3)ncc12
relative abundance (bead binding, competition bead pull-down, item: LINJ.35.1230; Leishmania donovani extract; 10 µM; relative to: vehicle): 1.1

O=C(N[C@@H]1c2ccccc2C[C@H]1N1CCCC1)c1ccc(-c2ccnc3[nH]ccc23)nc1
remaining binding (MAP3K19 (Homo sapiens, UniProt Q56UN5); binding, competition with immobilised ligand; 3 µM): 1.2%

O=C(Cc1ccc(Cl)c(Cl)c1)N1CCN(CC2CC2)[C@@H]2COC[C@H](N3CCCC3)[C@H]21 (relative stereo)
Emax (OPRK1 (Homo sapiens, UniProt P41145); agonist; 0.3333 h): 101%

C[C@H](NCc1ccc(-c2ccc(C(F)(F)F)cc2)cc1)C(N)=O
inhibition (SRC (Homo sapiens, UniProt P12931); cell-free assay, competition with immobilised ligand; 1 µM): 10%

O=C1NC(=O)c2c1c1cc(F)c[n+]3c1c1c2c2cc(O)ccc2[n]1[Ru-4]312([N]=C=S)[S+]3CC[S+]1CC[S+]2CC3 (centres unmarked)
remaining activity (SIK1 (Homo sapiens, UniProt P57059); enzyme activity; 100 nM, human enzyme, together with: 10 µM ATP; relative to: untreated): 19%

C[C@@H]1COCCN1c1nc(NCc2cccnc2C(F)(F)F)c2cccnc2n1
IC50 (CHRNA1/CHRNG/CHRND (Homo sapiens, UniProt P02708+P07510+Q07001); binding; CEREP panel): > 100000 nM

CS(C)(=O)=Nc1ccc(-c2ccc(-c3nc4cc(O[C@@H]5CO[C@H]6[C@@H]5OC[C@H]6O)[nH]c4cc3F)cc2)cc1
inhibition (TXK (Homo sapiens, UniProt P42681); enzyme activity, inhibitor; 10 µM): 44%

CC(=O)NCCCC[C@@H]1NC(=O)[C@H](Cc2c[nH]c3c(C)cccc23)NC(=O)[C@H]([C@@H](C)O)NC(=O)[C@H](CC(N)=O)NC(=O)[C@@H](NC(C)=O)C(C)(C)SSC(C)(C)[C@@H](C(=O)N[C@@H](Cc2ccc(OCCN)cc2)C(=O)N[C@@H](Cc2ccc3ccccc3c2)C(=O)NC2(C(=O)N[C@@H](CCC(=O)O)C(=O)N[C@@H](CC(N)=O)C(=O)N[C@@H](Cc3cccnc3)C(=O)N(C)CC(N)=O)CCOCC2)NC1=O
protein binding (Albumin (ALB, Homo sapiens, UniProt P02768); equilibrium dialysis; purified human albumin; 0.01 µM): 29.6 ± 4.1 % bound

CC(C)[C@H]1NC(=O)C[C@H]2/C=C/CCSSC[C@@H](NC1=O)C(=O)N[C@H](Cc1cccc3ccccc13)C(=O)NCC(=O)O2
inhibition (PRKCD (Homo sapiens, UniProt Q05655); enzyme activity, inhibitor; 10 µM): 6.7%

CC[C@H](C)[C@H](NC(=O)[C@H](CCCNC(=N)N)NC(=O)[C@H](CCCNC(=N)N)NC(=O)[C@H](CC(C)C)NC(=O)[C@H](Cc1ccccc1)NC(=O)CNC(=O)CNC(=O)[C@@H](N)Cc1ccc(O)cc1)C(=O)N[C@@H](CCCNC(=N)N)C(=O)N1CCC[C@H]1C(=O)N[C@@H](CCCCN)C(=O)N[C@@H](CC(C)C)C(=O)N[C@@H](CCCCN)C(=O)O
Emax (GPR139 (Homo sapiens, UniProt Q6DWJ6); GαsS activation, agonist, BRET; HEK293T/17; 40 µM): 5.35% and 6.85%

Cc1cc(Nc2nc(C[C@@]3(C(=O)O)CCN(Cc4cccc(Cl)c4F)[C@H](C)C3)cc(C)c2F)[nH]n1
activation (HTR1B (Homo sapiens, UniProt P28222); agonist; 10 µM): 2.85%
